Published values pooled from the literature.
Compare with care: the assays were run in different laboratories. ± marks the error that the study gave. Converted amounts (≈) assume the structure as drawn.
Chain of UniProt P00519 (whole entry, looked up): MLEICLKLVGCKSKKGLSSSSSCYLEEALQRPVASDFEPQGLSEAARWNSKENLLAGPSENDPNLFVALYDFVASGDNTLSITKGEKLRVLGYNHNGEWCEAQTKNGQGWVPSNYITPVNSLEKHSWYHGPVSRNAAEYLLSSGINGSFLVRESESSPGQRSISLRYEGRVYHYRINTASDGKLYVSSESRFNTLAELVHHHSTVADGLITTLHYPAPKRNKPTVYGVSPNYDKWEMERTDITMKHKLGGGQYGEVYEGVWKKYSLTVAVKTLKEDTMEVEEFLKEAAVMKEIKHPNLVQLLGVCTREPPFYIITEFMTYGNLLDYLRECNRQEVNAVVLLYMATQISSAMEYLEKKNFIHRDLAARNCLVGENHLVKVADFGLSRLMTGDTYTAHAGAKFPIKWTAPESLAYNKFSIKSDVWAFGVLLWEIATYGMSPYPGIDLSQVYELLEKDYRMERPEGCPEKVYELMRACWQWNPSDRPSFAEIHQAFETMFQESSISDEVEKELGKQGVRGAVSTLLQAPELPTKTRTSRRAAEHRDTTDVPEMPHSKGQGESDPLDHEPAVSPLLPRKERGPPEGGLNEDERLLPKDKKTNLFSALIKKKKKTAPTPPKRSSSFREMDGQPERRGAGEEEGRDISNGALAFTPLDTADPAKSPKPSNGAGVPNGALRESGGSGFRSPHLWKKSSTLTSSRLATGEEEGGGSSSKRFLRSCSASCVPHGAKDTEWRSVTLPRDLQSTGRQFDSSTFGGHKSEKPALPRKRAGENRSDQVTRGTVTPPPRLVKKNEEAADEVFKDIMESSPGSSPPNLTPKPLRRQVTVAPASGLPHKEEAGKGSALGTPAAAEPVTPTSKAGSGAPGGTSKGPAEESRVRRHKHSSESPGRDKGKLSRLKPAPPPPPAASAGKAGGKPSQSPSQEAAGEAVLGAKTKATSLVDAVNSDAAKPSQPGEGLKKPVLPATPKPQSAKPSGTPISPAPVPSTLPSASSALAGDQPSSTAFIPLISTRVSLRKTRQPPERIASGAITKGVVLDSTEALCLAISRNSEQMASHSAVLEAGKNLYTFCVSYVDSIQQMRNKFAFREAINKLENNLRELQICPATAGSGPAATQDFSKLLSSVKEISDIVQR
Chain of UniProt O96017 (whole entry, looked up): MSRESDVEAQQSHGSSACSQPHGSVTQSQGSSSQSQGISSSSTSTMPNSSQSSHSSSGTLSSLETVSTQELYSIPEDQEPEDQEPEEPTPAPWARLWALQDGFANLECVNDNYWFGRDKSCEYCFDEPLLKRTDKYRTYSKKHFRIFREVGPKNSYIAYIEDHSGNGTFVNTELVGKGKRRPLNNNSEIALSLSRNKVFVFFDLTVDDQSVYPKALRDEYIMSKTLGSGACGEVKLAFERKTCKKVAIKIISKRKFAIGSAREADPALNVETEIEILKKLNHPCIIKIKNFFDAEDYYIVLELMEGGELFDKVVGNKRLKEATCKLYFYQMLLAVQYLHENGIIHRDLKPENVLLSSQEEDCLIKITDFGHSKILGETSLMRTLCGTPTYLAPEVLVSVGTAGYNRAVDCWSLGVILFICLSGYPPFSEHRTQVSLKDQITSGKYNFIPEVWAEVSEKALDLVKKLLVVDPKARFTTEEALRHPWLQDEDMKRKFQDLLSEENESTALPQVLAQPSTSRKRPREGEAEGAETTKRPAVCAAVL

`Fc1cccc(COc2ccc(Nc3ncnc4ccc(-c5cccc(CN6CCCCC6)c5)cc34)cc2Cl)c1` has a selectivity ratio of 3 (Trypanosoma cruzi; NIH 3T3; reference: NIH 3T3 TC50 over T. cruzi EC50).
For `COc1ccccc1-c1n[nH]c2nc(NC3CCN(C(=O)Cc4ccc(F)cc4F)CC3)ncc12`, the relative abundance was 1.26 (bead binding, competition bead pull-down, refers to: LMJF.36.4420; Leishmania donovani axenic amastigote extract; 10 µM; reference: vehicle).
The revertant colonies of `Cc1nc2cccc(OCC(C)(C)C(=O)NC(C)C)c2c(N)c1C(=O)[O-].[Na+]` is reported as 27 ± 8 colonies/plate (Salmonella typhimurium; reverse mutation, plate incorporation; TA98; 0.80 mg/plate, without S9).
The inhibition of `CN(C)[C@H]1C[C@@]23CC[C@@]4(O2)C(=CC[C@]2(C)[C@@H](c5ccc6ccncc6c5)CC[C@H]24)C=C3[C@@H](O)[C@@H]1O` is reported as -6.2% (Serine/threonine-protein kinase Chk2 (CHEK2, Homo sapiens, UniProt O96017); ATP probe labelling, inhibitor, KiNativ profiling; 0.1 µM).
`CC[C@H](C)[C@H](NC(=O)[C@H](CCCCN)NC(=O)[C@H](CCCCN)NC(=O)[C@H](Cc1ccccc1)NC(=O)[C@H](Cc1ccccc1)NC(=O)[C@H](CCCCN)NC(=O)[C@H](CCCCN)NC(=O)[C@H](Cc1ccccc1)NC(=O)[C@H](CCCNC(=N)N)NC(=O)[C@@H](N)CCCCN)C(=O)N[C@@H](CCCCN)C(=O)N[C@@H](CCCCN)C(=O)N[C@@H](CO)C(=O)N[C@H](C(=O)N[C@@H](CCCCN)C(=O)N[C@@H](CCCCN)C(=O)N[C@@H](CCCNC(=N)N)C(=O)N[C@H](C(=O)N[C@@H](CCCCN)C(=O)N[C@@H](CCCCN)C(=O)N[C@@H](CC(C)C)C(=O)N[C@@H](Cc1ccccc1)C(=O)N[C@@H](CCCCN)C(=O)N[C@@H](CCCCN)C(=O)N1CCC[C@H]1C(=O)N[C@@H](CCCNC(=N)N)C(=O)N[C@H](C(=O)N[C@H](C(=O)N1CCC[C@H]1C(=O)N[C@H](C(=O)N[C@@H](CO)C(=O)N[C@H](C(=O)N1CCC[C@H]1C(=O)N[C@@H](Cc1ccccc1)C(=O)O)[C@@H](C)CC)[C@@H](C)CC)[C@@H](C)CC)C(C)C)C(C)C)C(C)C` has an MIC of 4 µg/mL (≈ 0.948 µM) (Pseudomonas aeruginosa; P1, mouse serum; 0.5 h, 37 °C).
`CC1(F)CN(C(=O)Cn2c(=O)c(C(=O)NCc3ccc(Cl)cc3)cc3nc(N4CCN(CCN)C4=O)cnc32)C1` gave a selectivity index of over 140 (human cytomegalovirus; GFP reporter; AD169-GFP; retest; reference: CC50 over EC50).
`Cc1cc(/C=C/C#N)cc(C)c1Oc1nc(NC2CCN(Cc3ccc(S(C)(=O)=O)cc3)CC2)nc2ncccc12` gave a selectivity index of 22 (HIV-1; MTT; MT4, RT A98G/V106I/V179D/Y181C/G333E mutant; reference: CC50 over EC50).
For `O=C(Oc1cc(OC(=O)c2cc(O)c(O)c(O)c2)c2ccccc2c1)c1cc(O)c(O)c(O)c1`, the therapeutic index was 39.8 (Herpes simplex virus 2; BEAS-2B, acyclovir-resistant; reference: CC50 over IC50).
`CC(=O)NCCCC[C@@H]1NC(=O)[C@H](Cc2c[nH]c3c(C)cccc23)NC(=O)[C@H]([C@@H](C)O)NC(=O)[C@H](CC(N)=O)NC(=O)[C@@H](NC(C)=O)C(C)(C)SSC(C)(C)[C@@H](C(=O)N[C@@H](Cc2ccc(OCCN)cc2)C(=O)N[C@@H](Cc2ccc3ccccc3c2)C(=O)NC2(C(=O)N[C@@H](CCC(=O)O)C(=O)N[C@@H](CC(N)=O)C(=O)N[C@@H](Cc3cccnc3)C(=O)N(C)CC(N)=O)CCOCC2)NC1=O` has a protein binding of 8.53 ± 0.73% (human alpha-1-acid glycoprotein 0.14%; equilibrium dialysis; 0.1 µM).
`O=C(c1cccc(-c2ccc3ncnc(Nc4ccc(OCc5cccc(F)c5)c(Cl)c4)c3c2)c1)N1CCOCC1` gave a selectivity ratio of 1.5 (Trypanosoma cruzi; NIH 3T3; reference: NIH 3T3 TC50 over T. cruzi EC50).
With `O=C(O)CCCOc1ccc(O)cc1-c1cc(-c2ccccc2C(F)(F)F)n(-c2ccccc2)n1` the growth-inhibiting concentration was at least 2500 µg/plate (Salmonella typhimurium; Ames test; TA98; concentration not given, without S9 metabolic activation).
`O=C1NC2(CC2)COc2ncc(F)cc2[C@H]2COCCN2c2ccn3ncc1c3n2`: “organ-to-brain weight ratio” 647 ± 41.8% (Sprague-Dawley rat, male, liver; oral, 5 mg/kg/day, 4 weeks dosing, end of recovery).
The inhibition of `CS(C)(=O)=Nc1ccc(-c2ccc(-c3nc4cc(O[C@@H]5CO[C@H]6[C@@H]5OC[C@H]6O)[nH]c4cc3F)cc2)cc1` is reported as -20% (Tyrosine-protein kinase ABL1 (ABL1, Homo sapiens, UniProt P00519); enzyme activity, inhibitor; 10 µM).
With `COc1cc2nc(NC3CCN(Cc4ccc(C(N)=O)cc4)CC3)nc(Oc3c(C)cc(C#N)cc3C)c2cc1OC` the selectivity index was under 1 (HIV-1; MTT; MT4, RT A98G/V106I/V179D/Y181C/G333E mutant; reference: CC50 over EC50).
The selectivity ratio of `Fc1cccc(COc2ccc(Nc3ncnc4ccc(-c5ccc(CN6CCCCC6)cc5)cc34)cc2Cl)c1` is reported as 3.7 (Trypanosoma cruzi; NIH 3T3; reference: NIH 3T3 TC50 over T. cruzi EC50).
